Assay results gathered from unrelated publications.
Parts stem from different laboratories: compare values within a part only. Changes are numbered by the printed parent chain.

Block 1
Target: Sal-like protein 4, full length isoform B (SALL4, Homo sapiens, UniProt Q9UJQ4-2, residues 1-616)
Technique: universal PBM
Form: double-stranded DNA, one strand shown
Sample: in vitro
Concentration: not given
Setting: 8-mer, flanks averaged, mean of replicates
Reading: higher = stronger binding
Construct (chain): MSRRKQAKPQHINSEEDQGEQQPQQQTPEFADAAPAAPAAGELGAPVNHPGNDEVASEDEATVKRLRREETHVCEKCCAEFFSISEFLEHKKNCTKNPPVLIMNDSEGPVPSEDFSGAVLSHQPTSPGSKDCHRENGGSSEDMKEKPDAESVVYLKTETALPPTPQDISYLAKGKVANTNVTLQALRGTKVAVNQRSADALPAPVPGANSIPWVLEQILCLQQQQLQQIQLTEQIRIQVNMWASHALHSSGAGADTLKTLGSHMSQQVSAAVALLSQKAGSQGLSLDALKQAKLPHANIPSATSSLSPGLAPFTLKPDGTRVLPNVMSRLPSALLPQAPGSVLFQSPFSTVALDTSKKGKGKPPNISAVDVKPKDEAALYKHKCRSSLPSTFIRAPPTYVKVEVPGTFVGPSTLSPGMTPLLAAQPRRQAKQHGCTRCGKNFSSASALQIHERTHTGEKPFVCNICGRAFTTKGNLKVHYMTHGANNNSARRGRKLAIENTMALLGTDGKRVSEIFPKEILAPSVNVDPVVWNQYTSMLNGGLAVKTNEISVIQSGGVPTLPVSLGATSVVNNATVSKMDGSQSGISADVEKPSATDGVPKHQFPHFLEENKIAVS
Oligonucleotide	E-score
ACCTTAGG	-0.227
GTCGAGTA	-0.0708
AGCGCGGA	-0.207
ACGAATTG	-0.00141
CCGAAACA	0.102
CGTTTGAA	0.0642
CGACGATC	-0.054
ACATGACG	0.0795

Block 2
Target: Interferon regulatory factor 5, full length, phosphomimetic (IRF5, Homo sapiens, UniProt Q13568-2, residues 1-514, K96S/S451D/S453D/S456D/S462D)
Technique: protein-binding microarray
Form: double-stranded DNA, one strand shown
Sample: in vitro
Concentration: 250 nM
Setting: 60-bp whole probe
With: salmon DNA 0.4 mg/ml
Baseline: random background probes
Reading: higher = stronger binding
Constant ends, left off below: GCCTAGCAC … GTCTTGATTCGCTTGACGCTGCTG
Oligonucleotide	log fluorescence
TTAGATTTCGGGAATCGATTAGTGCTA	3.55 z-score
TTAGGTTTCGGTTTCGGTAAGTGCTAG	12.2 z-score
GACTGACTGCTTCTCCTGACGTGCTAG	-0.21 z-score
GACGATTCCAGTTTCGATACGTGCTAG	9.28 z-score
TGACTTTTGAGAGATGGAAACGTGCTA	0.654 z-score
GGGTTCAAGAAGTAGGAGAAGTGCTAG	-0.0734 z-score
TTAGATCTCACTTTCGATTAGTGCTAG	9.7 z-score
GGCGATCTCAGTATCGAGACGTGCTAG	1.49 z-score

Block 3
Target: Centromere-binding protein 1, full length, His-tagged (CBF1, Saccharomyces cerevisiae, UniProt P17106, residues 1-351)
UniProt P17106, sequence (whole entry, looked up): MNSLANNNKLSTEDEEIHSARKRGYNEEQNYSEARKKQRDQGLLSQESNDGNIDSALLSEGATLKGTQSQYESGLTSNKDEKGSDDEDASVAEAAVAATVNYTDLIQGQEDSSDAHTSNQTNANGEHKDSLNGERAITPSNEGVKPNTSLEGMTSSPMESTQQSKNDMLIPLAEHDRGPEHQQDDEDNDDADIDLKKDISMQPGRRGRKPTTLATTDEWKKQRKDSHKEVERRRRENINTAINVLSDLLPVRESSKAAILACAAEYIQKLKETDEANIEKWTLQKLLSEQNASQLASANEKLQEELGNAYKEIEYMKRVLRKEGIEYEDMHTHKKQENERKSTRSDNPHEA
Technique: competition protein-binding microarray
Form: double-stranded DNA, one strand shown
Sample: in vitro
Concentration: 2 µM
Setting: whole 60-bp probe, lowest competitor level
With: Pho4 competitor, 0.05 µM
Reading: higher = stronger binding
Constant ends, left off below: … GTCTTGATTCGCTTGACGCTGCTG
Oligonucleotide	fluorescence intensity
TTTATTTATTGAATTCACGTGTTGATGTTTTTTTCA	1540 a.u.
TTTTCCGCCGCAATTTTCGTGACGGATGTCGTTCAG	67.2 a.u.
CCATGGACAATTTCACACGTGAAAATTGGTTACCAT	616 a.u.
CGTCAGCAAAGGGGACCCGTGATGGAGGCGGCCGGG	99.1 a.u.
CATACCCAACCTTGTAAGGTGGGTGAAGATATTTGT	73.1 a.u.
CTTTCCCGATCTTGCATCGTGGGTGTAGCACATTTG	79.1 a.u.
AAATTACTAAGTTGTCACACCACTTACCCCGTATGA	154 a.u.
TTGAACCTTGGTCTTCACGTGGTGAAGTATTGGTAC	957 a.u.

Further values, each from its own experiment
Parent: viral docking peptide; KKVKRRLFETREL; partner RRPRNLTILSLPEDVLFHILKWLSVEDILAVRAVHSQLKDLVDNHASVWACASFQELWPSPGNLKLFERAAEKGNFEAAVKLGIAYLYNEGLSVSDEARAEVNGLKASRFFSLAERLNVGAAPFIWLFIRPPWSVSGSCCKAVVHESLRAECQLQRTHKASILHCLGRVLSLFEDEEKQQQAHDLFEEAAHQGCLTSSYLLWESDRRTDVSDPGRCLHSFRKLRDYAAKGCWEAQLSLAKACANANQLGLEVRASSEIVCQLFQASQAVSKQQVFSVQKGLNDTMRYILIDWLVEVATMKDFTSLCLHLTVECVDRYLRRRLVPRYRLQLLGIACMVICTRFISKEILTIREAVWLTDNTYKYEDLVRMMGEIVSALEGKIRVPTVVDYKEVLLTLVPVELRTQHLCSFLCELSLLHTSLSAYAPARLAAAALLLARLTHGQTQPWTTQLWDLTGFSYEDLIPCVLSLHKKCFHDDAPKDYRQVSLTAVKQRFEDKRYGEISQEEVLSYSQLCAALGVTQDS
Substitution	target	test	system	setting	scale	quantity	value
F8A	CCNF, cyclin fold, Cln2 fusion (human)	yeast growth competition, sequencing	yeast	strong parent motif	baseline: not given, higher = stronger binding	normalised enrichment score	0.714

For quick reference, copied from above (block 2):
Oligonucleotide	log fluorescence
GGGTTCAAGAAGTAGGAGAAGTGCTAG	-0.0734 z-score
GACGATTCCAGTTTCGATACGTGCTAG	9.28 z-score
GGCGATCTCAGTATCGAGACGTGCTAG	1.49 z-score
